Results gathered from unrelated publications.
Protocols differ between the studies behind these lines. Values joined by “and” are separate records of one study, mostly repeats; a detail may differ. ± marks the error that the study gave.
Spike glycoprotein: Spike glycoprotein (Severe acute respiratory syndrome coronavirus 2, UniProt P0DTC2)
rep main protease: Replicase polyprotein 1ab, main protease (rep, Severe acute respiratory syndrome coronavirus 2, UniProt P0DTD1)

Compound | target or system | test | system | conditions | how to read | endpoint | result
CC[C@H](C)[C@H](NC(=O)[C@H](CC(C)C)NC(=O)[C@H](Cc1c[nH]c2ccccc12)NC(=O)[C@H](CCC(N)=O)NC(=O)[C@@H](NC(=O)[C@H](Cc1ccccc1)NC(=O)[C@H](C)NC(=O)[C@H](CCCCNC(=O)COCCOCCNC(=O)COCCOCCNC(=O)CC[C@H](NC(=O)CCCCCCCCCCCCCCCCCCC(=O)O)C(=O)O)NC(=O)[C@H](CCC(N)=O)NC(=O)[C@H](C)NC(=O)[C@@H](NC(=O)[C@H](CCCCN)NC(=O)[C@H](CC(=O)O)NC(=O)[C@H](CC(C)C)NC(=O)C(C)(C)NC(=O)[C@@H](NC(=O)[C@H](CO)NC(=O)[C@H](Cc1ccc(O)cc1)NC(=O)[C@H](CC(=O)O)NC(=O)[C@H](CO)NC(=O)[C@@H](NC(=O)[C@H](Cc1ccccc1)NC(=O)[C@@H](NC(=O)CNC(=O)[C@H](CCC(=O)O)NC(=O)C(C)(C)NC(=O)[C@@H](N)Cc1ccc(O)cc1)[C@@H](C)O)[C@@H](C)O)[C@@H](C)CC)[C@@H](C)CC)C(C)C)C(=O)N[C@@H](C)C(=O)NCC(=O)NCC(=O)N1CCC[C@H]1C(=O)N[C@@H](CO)C(=O)N[C@@H](CO)C(=O)NCC(=O)N[C@@H](C)C(=O)N1CCC[C@H]1C(=O)N1CCC[C@H]1C(=O)N1CCC[C@H]1C(=O)N[C@@H](CO)C(N)=O | – | item: anti-drug antibodies | patients with type 2 diabetes | 5/5/10/10 mg escalating, post-baseline | – | subjects with treatment-emergent ADA | 8.3%
C[C@@H]1O[C@@H](O[C@H]2[C@H](O[C@H]3CC[C@@]4(C)[C@@H](CC[C@]5(C)[C@@H]4CC=C4[C@@H]6CC(C)(C)CC[C@]6(C(=O)O[C@@H]6O[C@H](CO[C@@H]7O[C@H](CO)[C@@H](O[C@@H]8O[C@@H](C)[C@H](O)[C@@H](O)[C@H]8O)[C@H](O)[C@H]7O)[C@@H](O)[C@H](O)[C@H]6O)CC[C@]45C)[C@]3(C)CO)OC[C@H](O)[C@@H]2O)[C@H](O)[C@H](O)[C@H]1O | Spike glycoprotein | binding, biolayer interferometry | – | – | – | kon | 243 M⁻¹ s⁻¹
Cc1cnoc1C(=O)NC[C@@H]1CC2(CCOCC2)CN1C(=O)c1cc(F)cc(C(N)=O)c1 | rep main protease | enzyme activity, inhibitor | – | 5 µM, run 2 | – | inhibition | 14.1%
CC(=O)c1c(O)c(C)c(O)c(Cc2c(O)c3c(c(C(=O)/C=C/c4ccccc4)c2O)OC(C)(C)C=C3)c1O | KCNH2 (Homo sapiens, UniProt Q12809) | ion current, activator, whole-cell patch clamp | HEK293 expressing hERG1 | 15 µM | relative to: untreated | activation rate | 2.4 ± 0.3 fold
Nc1ncnc2c([C@@H]3N[C@H](CO)[C@@H](O)[C@H]3O)c[nH]c12 | Venezuelan equine encephalitis virus | viral replication | HeLa, SH3 | 12.5 µM | – | inhibition | 0.1%
CCc1c(C(=O)C(N)=O)c2c(OCC(=O)O)cccc2n1Cc1ccccc1 | Daboia russelii venom phospholipase A2 | enzyme activity, inhibitor | TN population | 0.001 µM, with: NOB substrate | relative to: venom alone | remaining activity | 99% and 100%
Cn1cnc(Cn2c(=O)[nH]/c(=N\c3cc4cn(C)nc4cc3Cl)n(Cc3cc(F)c(F)cc3F)c2=O)n1 | – | – | human, mild renal impairment | oral, 375 mg, treatment-related decreased GFR, Moderate severity | – | patients with adverse event | 0%
O=C1NC(=O)[C@@H](CC(=O)N2C[C@H](CO)C3(C2)CN(C(=O)c2cc4ccc(O)cc4[nH]2)C3)N1 | rep main protease | enzyme activity, inhibitor | – | 5 µM | – | inhibition | 16.1%
Cc1ccc(Nc2ccnc(N3CCCC3C(=O)NCCCc3ccccc3)n2)cc1 (stereo not shown) | SARS-CoV-2 | cytopathic effect, cell-based CPE | USA_WA1/2020 | round 1, 5-point dilution | – | AC50 | 12.6 µM
COc1ccc2c(O[C@@H]3C[C@H]4C(=O)N[C@]5(C(=O)NS(=O)(=O)C6CC6)C[C@H]5/C=C\CCCCN(C)C(=O)[C@@H]4C3)cc(-c3nc(C(C)C)cs3)nc2c1C | rep main protease | reporter gene (mKate2), inhibitor | – | 20 µM | – | inhibition | -1.19%
CC(C)(O)[C@H]1CC[C@@](C)([C@H]2[C@@H](O)C[C@@]3(C)[C@@H]4C[C@H](O[C@@H]5O[C@H](CO)[C@@H](O)[C@H](O)[C@H]5O)[C@H]5C(C)(C)[C@@H](O[C@@H]6OC[C@@H](O)[C@H](O)[C@H]6O)CC[C@@]56C[C@@]46CC[C@]23C)O1 | Spike glycoprotein | binding, biolayer interferometry | – | – | – | koff | 0.385 s⁻¹
CC(=O)Cc1cc(=O)c2c(C)cc(O)c([C@@H]3O[C@H](CO)[C@@H](O)[C@H](O)[C@H]3O)c2o1 | rep main protease | reporter gene (Gaussia luciferase), inhibitor | – | 20 µM | – | inhibition | 2.15%
Nc1cc(OCCNCc2ccc(S(=O)(=O)F)cc2)ccn1 | cya (Bacillus anthracis, UniProt P40136) | – | – | – | – | kinact | 0.000483 s⁻¹
O=C(NC[C@H](NC(=O)c1cnoc1-c1ccccc1)c1ccc2ccccc2c1)c1cn[nH]n1 | rep main protease | enzyme activity, inhibitor | – | 5 µM, run 1 | – | inhibition | 7.2%
CCc1ccccc1N1CC(c2nc3ccccc3n2CCCCOc2ccccc2OC)CC1=O (stereo not shown) | SARS-CoV-2 | cytopathic effect | USA_WA1/2020 | round 1, 5-point | – | maximum response | 35.5%
O=C(N[C@@H](Cc1ccccc1)C(=O)O)OCc1ccccc1 | rep main protease | reporter gene (Gaussia luciferase), inhibitor | – | 20 µM | – | inhibition | 1.1%
Oc1cc(O)c2c(c1)O[C@H](c1cc(O)c(O)c(O)c1)[C@H](O)C2 | Spike glycoprotein | binding, BLI | – | – | – | koff | 0.00877 s⁻¹
C[C@]1(C(=O)NC[C@H](NC(=O)c2cncc3[nH]ccc23)c2ccc3ccccc3c2)CCNC1=O | rep main protease | enzyme activity | – | 5 µM | – | inhibition | 13.8%
O=C(O)c1cc(=O)cc(C(=O)O)o1 | rep main protease | reporter gene (mKate2), inhibitor | – | 20 µM | – | inhibition | -0.766%
